Experimental data collected from several papers.
Each line is one published result; not all experiments were run side by side. ± gives the spread as reported.

COC(=O)C1CN1S(=O)(=O)c1ccc(C)cc1 (stereo not shown)  IC50 (HT-1080; cell growth or viability, MTT; 48 h): 160 µM
NC1CCCCC1N.O=C1[O][Pt]([O]C(=O)c2ccc(P(c3ccccc3)c3ccccc3)cc2)([O]C(=O)c2ccc(P(c3ccccc3)c3ccccc3)cc2)[O]C1=O.[Cl][Au].[Cl][Au]  IC50 (T24; cell growth or viability, resazurin; 72 h): 5.42 µM
C[C@@H]1N=C(c2ccccc2)c2cc(C#CCCCC(=O)NO)ccc2N(C)C1=O  IC50 (THP-1; apoptosis, flow cytometry; 48 h): 6.5 µM
CC(C)OC(=O)C(n1cccn1)n1cccn1.F[P-](F)(F)(F)(F)F.[Cu+].c1ccc(P(c2ccccc2)c2ccccc2)cc1  IC50 (LoVo OXP, oxaliplatin-resistant; MTT; 72 h): 8.8 ± 1.3 µM
OC[C@H]1[C@@H](O)[C@@H](O)CN1Cc1ccccc1  IC50 (HCT116 p53-/-; MTS; 72 h): > 200 µM
O=C1CC2(C1)C(=O)[O][Pt]1([Cl])([O]C(=O)C(F)(F)F)([NH][C@@H]3CCCC[C@H]3[NH]1)[O]C2=O  IC50 (SGC-7901; cell growth or viability, MTT): 8.73 µM
CCOC(=O)[C@H]1Cc2c(cc([N+](=O)[O-])cc2[N+](=O)[O-])[C@@H](O)[C@@]12C(=O)Nc1ccccc12  IC50 (U-251; cell growth or viability, MTT; 24 h): 43.6 µM
CC(C)c1cccc(C(C)C)c1-n1c[n+](-c2c(C(C)C)cccc2C(C)C)c2c1-c1cccc3cccc-2c13.[Cl][Pd-]([Cl])[CH2]C=Cc1ccccc1  IC50 (CHO; cell growth or viability, MTT; 72 h): 8 µM
CC[C@H](C)[C@H](NC(=O)[C@H](Cc1ccc(O)cc1)NC(=O)[C@@H]1CCCN1C(=O)[C@H](C)NC(=O)[C@H](CC(C)C)NC(=O)[C@H](C)NC(=O)CCCCCNC(=O)[C@H](Cc1ccc(O)cc1)NC(=O)[C@H](Cc1c[nH]cn1)NC(=O)[C@H](CCSC)NC(=O)[C@H](CCSC)NC(=O)[C@H](CC(=O)O)NC(=O)[C@@H]1CCCN1C(=O)[C@@H]1CCCN1C(=O)[C@H](Cc1c[nH]c2ccccc12)NC(=O)[C@H](CO)NC(=O)[C@@H](NC(=O)[C@H](Cc1ccc(O)cc1)NC(=O)[C@H](Cc1ccc(O)cc1)NC(C)=O)C(C)C)C(=O)N1CCC[C@H]1C(=O)N[C@@H](Cc1ccc(O)cc1)C(=O)NCC(=O)N[C@@H](CCCNC(=N)N)C(=O)N[C@@H](CCCCN)C(=O)N[C@@H](CCCCN)C(=O)N[C@@H](CCCNC(=N)N)C(=O)N[C@@H](CCCNC(=N)N)C(=O)N[C@@H](CCC(N)=O)C(=O)N[C@@H](CCCNC(=N)N)C(=O)N[C@@H](CCCNC(=N)N)C(=O)N[C@@H](CCCNC(=N)N)C(N)=O  IC50 (CT26; cell growth or viability, CCK-8): 10.3 µM
C[C@H]1C(OCCCCCCCCCCC[P+](c2ccccc2)(c2ccccc2)c2ccccc2)O[C@@H]2O[C@@]3(C)CCC4[C@H](C)CCC1[C@]42OO3 (stereo partly shown)  IC50 (T24; cell growth or viability, MTT; 72 h): 0.153 µM
Cc1cc(C)c(N2CCN(c3c(C)cc(C)cc3C)C2=[Se])c(C)c1.[Cl][Ag]  IC50 (HCT-15; cell growth or viability, MTT; 72 h): 4 µM
CO[C@@H]1[C@@H](O)[C@H](O[C@H]2CC[C@@]3(C)[C@H](CC[C@@H]4[C@@H]3CC[C@]3(C)[C@@H](C5=CC(=O)OC5)[C@@H](O)C[C@]43O)C2)O[C@H](C)[C@@H]1O[C@@H]1O[C@H](CO)[C@@H](O)[C@H](O)[C@H]1O  IC50 (BEAS-2B; cell growth or viability, MTT; 48 h): 1.47 µM
CC(=O)c1ccc2c(c1)N(CCCN(C)C)c1ccccc1S2  IC50 (Vero 76; cell growth or viability, neutral red): 37.8 µM
C[C@H](N)[C@@H](CCCCCCCCCCCCCCC(=O)CCCCCCC[C@@H](O)[C@@H](C)N)O[C@@H]1O[C@H](CO)[C@H](O)[C@H](O)[C@H]1O  IC50 (MCF-12A; cell growth or viability, resazurin; 96 h): 22.1 µM
CCC(C)C1OC(=O)C(NC(=O)c2cccc(NC=O)c2O)C(C)OC(=O)C(C(C)CC)OC(=O)C(C)(C)C(O)C(Cc2ccccc2)OC1=O (stereo not shown)  IC50 (SGC-7901; cell growth or viability, CCK-8; 72 h): 2e-05 µM
C[C@H]1[C@H](OC(=O)CCC(=O)OCCc2ccc(O)cc2)O[C@@H]2O[C@@]3(C)CC[C@H]4[C@H](C)CC[C@@H]1[C@@]24OO3  IC50 (SK-MEL3; cell viability, MTT; 24 h, with: deferoxamine 20 µM, 1 h before): 10.5 ± 2.3 µM
CCOC(=O)[C@@H]1Cc2c(cc([N+](=O)[O-])cc2[N+](=O)[O-])[C@@H](O)[C@@]12C(=O)Nc1ccc(Br)cc12  IC50 (U-251; cell growth or viability, MTT; 24 h): > 50 µM
Cc1ccc(-n2nc3c(=O)n(CCCC(=O)NCC(C)c4ccccc4)nc(C)c3c2C)cc1 (stereo not shown)  IC50 (MIA PaCa-2; cell growth or viability, CCK-8; 72 h): > 100 µM
CC(C)C[C@H](NC(=O)[C@H](CC(C)C)NC(=O)[C@H](CCC(=O)O)NC(=O)[C@H](Cc1c[nH]cn1)NC(=O)[C@H](CC(C)C)NC(=O)[C@H](Cc1c[nH]cn1)NC(=O)[C@H](CCC(=O)O)NC(=O)[C@H](CC(C)C)NC(=O)[C@H](CC(C)C)NC(=O)[C@H](CCC(=O)O)NC(=O)[C@H](Cc1c[nH]cn1)NC(=O)[C@@H](N)CC(C)C)C(=O)N[C@@H](CCC(=O)O)C(=O)N[C@@H](Cc1c[nH]cn1)C(N)=O  IC50 (4T1; cell growth or viability, MTT; pH 7.4): > 100 µM
C[C@H]1C(OCCCCCCCCCCCC[P+](c2ccccc2)(c2ccccc2)c2ccccc2)O[C@@H]2O[C@@]3(C)CCC4[C@H](C)CCC1[C@]42OO3 (stereo partly shown)  IC50 (T24; cell growth or viability, MTT; 72 h): 0.116 µM
CC(C)C[C@H](NC(=O)[C@H](CCCCN)NC(=O)[C@H](CC(C)C)NC(=O)[C@H](CC(C)C)NC(=O)[C@H](CCCCN)NC(=O)[C@H](CCCCN)NC(=O)[C@H](CC(C)C)NC(=O)[C@H](CC(C)C)NC(=O)[C@H](CCCCN)NC(=O)[C@H](CC(C)C)NC(=O)[C@H](CC(C)C)NC(=O)[C@H](CCCCN)NC(=O)[C@H](CCCCN)NC(=O)[C@H](CC(C)C)NC(=O)[C@@H](N)CSSC[C@H](N)C(=O)N[C@@H](CC(C)C)C(=O)N[C@@H](CCC(=O)O)C(=O)N[C@@H](Cc1c[nH]cn1)C(=O)N[C@@H](CC(C)C)C(=O)N[C@@H](CC(C)C)C(=O)N[C@@H](CCC(=O)O)C(=O)N[C@@H](Cc1c[nH]cn1)C(=O)N[C@@H](CC(C)C)C(=O)N[C@@H](CCC(=O)O)C(=O)N[C@@H](Cc1c[nH]cn1)C(=O)N[C@@H](CC(C)C)C(=O)N[C@@H](CC(C)C)C(=O)N[C@@H](CCC(=O)O)C(=O)N[C@@H](Cc1c[nH]cn1)C(N)=O)C(N)=O  IC50 (4T1; cell growth or viability, MTT; pH 7.4): > 100 µM
F[P-](F)(F)(F)(F)F.OCP(CO)CO.OCP(CO)CO.OCP(CO)CO.OCP(CO)CO.[Cu+]  IC50 (HFF-1; cell growth or viability, MTT; 72 h): 31 µM
CCCCCCN(CCCCCC)C1=[S+][Au-]2([S]1)[c]1ccccc1-c1cccc[c]12  IC50 (UWB1289; cell growth or viability, MTT; 72 h): > 100 µM
CNC(=S)N/N=C/c1ccc(OCc2ccccc2)cc1  IC50 (IMR-32; cell growth or viability, MTT; 24 h): 14.8 µg/mL
Cc1ccc(C(C)C)cc1.[Cl][Ru+].[O-]c1ccccc1C=NCCNc1ccnc2cc(Cl)ccc12  IC50 (CHO; cytotoxicity, MTT): 89 ± 19 µM
CC(=O)N[C@@H](Cc1c[nH]c2ccccc12)C(=O)N[C@@H](C)C(=O)N1CCC[C@H]1C(=O)N1CCC[C@H]1C(=O)N[C@@H](CC(C)C)C(=O)N[C@@H](Cc1c[nH]cn1)C(=O)N[C@@H](CO)C(=O)N[C@H](C(=O)N[C@@H](C)C(N)=O)[C@@H](C)OP(=O)(O)O  IC50 (U-266; cell growth or viability, MTT; 72 h): 0.72 µM
C[C@H]1[C@H](OC(=O)CCC(=O)OCCc2ccc(OC(=O)CCC(=O)O[C@@H]3O[C@@H]4O[C@@]5(C)CC[C@H]6[C@H](C)CC[C@@H]([C@H]3C)[C@@]46OO5)cc2)O[C@@H]2O[C@@]3(C)CC[C@H]4[C@H](C)CC[C@@H]1[C@@]24OO3  IC50 (SK-MEL3; cell growth or viability, MTT; 24 h): 32.8 µM
C1=C[N]2c3c4c(ccc3=C1)=CC=C[N]4[Ru+2]213([N]2C=CC=c4ccc5c(c42)[N]1C=CC=5)[N]1C=CC=c2c1c1c(c4nc5c6cccnc6c6ncccc6c5nc24)=CC=C[N]13  IC50 (H226; cell viability, MTT; 96 h): 49.2 ± 3.1 µM
C#CCSc1nc(Sc2nnnn2C)c2nnn(Cc3ccccc3)c2n1  IC50 (THP-1; cell growth or viability, MTS; 6 days): 1.14 µM
N=C(N)NCCC[C@H](NC(=O)[C@H](CCCNC(=N)N)NC(=O)[C@@H]1CCCN1C(=O)[C@H](CCCNC(=N)N)NC(=O)[C@H](CCCNC(=N)N)NC(=O)[C@H](CCCNC(=N)N)NC(=O)[C@H](Cc1c[nH]c2ccccc12)NC(=O)[C@H](CCCNC(=N)N)NC(=O)[C@H](CCCNC(=N)N)NC(=O)[C@H](CCCNC(=N)N)NC(=O)[C@H](CCCNC(=N)N)NC(=O)[C@H](CCCNC(=N)N)NC(=O)[C@H](Cc1c[nH]c2ccccc12)NC(=O)[C@H](CCCNC(=N)N)NC(=O)[C@H](CCCNC(=N)N)NC(=O)[C@H](Cc1ccc(O)cc1)NC(=O)[C@H](CCCNC(=N)N)NC(=O)[C@H](CCCNC(=N)N)NC(=O)[C@H](CCCNC(=N)N)NC(=O)[C@@H](N)Cc1c[nH]c2ccccc12)C(N)=O  IC50 (MCF-10A; cell viability, CellTiter-Blue; 24 h, serum-free medium): 16.7 ± 1.3 µM
CC(C)C[C@H](NC(=O)[C@H](CCCCN)NC(=O)[C@H](CC(C)C)NC(=O)[C@H](CC(C)C)NC(=O)[C@H](CCCCN)NC(=O)[C@H](CCCCN)NC(=O)[C@H](CC(C)C)NC(=O)[C@H](CC(C)C)NC(=O)[C@H](CCCCN)NC(=O)[C@H](CC(C)C)NC(=O)[C@H](CC(C)C)NC(=O)[C@H](CCCCN)NC(=O)[C@H](CCCCN)NC(=O)[C@H](CC(C)C)NC(=O)[C@@H](N)CSSC[C@H](N)C(=O)N[C@@H](CC(C)C)C(=O)N[C@@H](Cc1c[nH]cn1)C(=O)N[C@@H](CCC(=O)O)C(=O)N[C@@H](CC(C)C)C(=O)N[C@@H](CC(C)C)C(=O)N[C@@H](CCC(=O)O)C(=O)N[C@@H](Cc1c[nH]cn1)C(=O)N[C@@H](CC(C)C)C(=O)N[C@@H](Cc1c[nH]cn1)C(=O)N[C@@H](CCC(=O)O)C(=O)N[C@@H](CC(C)C)C(=O)N[C@@H](CC(C)C)C(=O)N[C@@H](CCC(=O)O)C(=O)N[C@@H](Cc1c[nH]cn1)C(N)=O)C(N)=O  IC50 (4T1; cell growth or viability, MTT; pH 7.4): > 100 µM
COc1cc(C=CC(=O)CC(=O)C=Cc2ccc(OC(=O)CCC(=O)OC3OC4OC5(C)CCC6C(C)CCC(C3C)C46OO5)c(OC)c2)ccc1OC(=O)CCC(=O)OC1OC2OC3(C)CCC4C(C)CCC(C1C)C24OO3 (stereo not shown)  IC50 (SK-MEL3; cell viability, MTT; 24 h, with: deferoxamine 20 µM, 1 h before): 3.8 ± 0.8 µM
CC[C@@H](C)[C@@H](NC(=O)[C@@H](Cc1c[nH]c2ccccc12)NC(=O)[C@H](N)CCCNC(=N)N)C(=O)N[C@H](CCSC)C(=O)N[C@H](Cc1ccc(O)cc1)C(=O)N[C@H](Cc1ccccc1)C(N)=O  IC50 (MDA-MB-468; cell growth or viability, trypan blue): 15 µM
[Cl][Au-]1([Cl])[c]2ccccc2P(c2ccccc2)(c2ccccc2)=[N+]1c1ccccc1  IC50 (human PBMC (healthy donors); cell death, annexin V flow cytometry; 24 h): 6 µM
CN(C)CC1C(=O)OC2C1CCC1(C)CC1CCC1(C)OC21 (stereo not shown)  IC50 (NCI/ADR-RES; cell growth, inhibitor, Alamar blue): 11.7 ± 3.1 µM
Cc1cc(C)c(-n2ccn(-c3c(C)cc(C)cc3C)c2=[Se])c(C)c1.[Cl][Au]  IC50 (H157 lung carcinoma cells; cell viability, MTT; 72 h): 0.5 ± 0.05 µM
C[C@H]1O[C@@H](O[C@H]2CC[C@@]3(C)[C@H](CC[C@@H]4[C@@H]3CC[C@]3(C)[C@@H](C5=CC(=O)OC5)[C@@H](O)C[C@]43O)C2)C[C@H](O)[C@@H]1O[C@@H]1O[C@H](CO)[C@@H](O)[C@H](O)[C@H]1O  IC50 (BEAS-2B; cell growth or viability, MTT; 48 h): 1.16 µM

For quick reference, copied from above:
CC(=O)N[C@@H](Cc1c[nH]c2ccccc12)C(=O)N[C@@H](C)C(=O)N1CCC[C@H]1C(=O)N1CCC[C@H]1C(=O)N[C@@H](CC(C)C)C(=O)N[C@@H](Cc1c[nH]cn1)C(=O)N[C@@H](CO)C(=O)N[C@H](C(=O)N[C@@H](C)C(N)=O)[C@@H](C)OP(=O)(O)O  IC50 (U-266; cell growth or viability, MTT; 72 h): 0.72 µM
C[C@H]1[C@H](OC(=O)CCC(=O)OCCc2ccc(OC(=O)CCC(=O)O[C@@H]3O[C@@H]4O[C@@]5(C)CC[C@H]6[C@H](C)CC[C@@H]([C@H]3C)[C@@]46OO5)cc2)O[C@@H]2O[C@@]3(C)CC[C@H]4[C@H](C)CC[C@@H]1[C@@]24OO3  IC50 (SK-MEL3; cell growth or viability, MTT; 24 h): 32.8 µM
